Published values collected from several papers.
Each line is one published result; not all experiments were run side by side. ± gives the spread as reported. In brackets after ≈: the same amount, converted by molar mass.

SMILES | organism | assay | test system | conditions | scale | measurement | value
COc1ccnc(C(=O)N[C@H]2COC(=O)[C@H](Cc3ccccc3)[C@@H](OC(=O)C(C)C)[C@H](C)OC2=O)c1OCOC(=O)C(C)C | Danio rerio | mortality | – | water exposure, flow-through, 96 h | – | LC50 | 0.104 µg/mL (≈ 0.169 µM)
O=[N+]([O-])c1ccc(N2CCN(CCC(O)c3ccc(F)cc3)CC2)c(C(F)(F)F)c1 (centres unmarked) | Salmonella typhimurium | SOS/umu test | TA1535/pSK1002 | 0.002 mg/mL, 4 h, without S9, lower range | – | survival | 111%
N#C[C@@]1(n2ccc(N)nc2=O)O[C@H](CO)[C@@H](O)[C@H]1O | Salmonella typhimurium | – | TA1535 | 50 µM, without S9 | – | viability | 102%
Nc1ccn([C@@H]2CS[C@H](CO)O2)c(=O)n1 | HIV-1 | MTT | MT4, RT L100I/V179D/Y181C mutant | – | reference: CC50 over EC50 | selectivity index | > 71
Cc1cc(C(=O)NC(C)(C)COc2cccc3c2C(N)=NS(=O)(=O)N3)cc(C)n1 | Escherichia coli | Ames test, initial | WP2 uvrA | 15.0 µg/plate | reference: solvent control | revertant ratio | 0.9
COCCN(CCOC)N=O | Salmonella typhimurium | mutagenicity, Ames plate incorporation | TA100 | 1500 µg/plate, 3 d, without S9, methanol | – | revertant colonies per plate | 126 ± 11
O=[N+]([O-])c1ccc(N2CCC(NCCC(O)c3ccc(F)c4ccccc34)CC2)c(C(F)(F)F)c1 (centres unmarked) | Salmonella typhimurium | SOS/umu test | TA1535/pSK1002 | 0.001 mg/mL, 4 h, without S9 activation | – | survival | 57%
COC(=O)[C@H]1[C@@H](O)[C@@]2(O)c3c(OC)cc(O[C@@H]4O[C@@H]([C@H](O)CO)CO[C@H]4OC)cc3O[C@@]2(c2ccc(OC)cc2)[C@@H]1c1ccccc1 | hepatitis E virus | – | A549 persistently infected with HEV | 2 nM, 72 h | – | viability | ~30%
CN1CCCN(S(=O)(=O)c2ccc(-c3ccc4ccnc(Nc5ccc(OCc6cccc(F)c6)c(Cl)c5)c4c3)cc2)CC1 | Trypanosoma cruzi | – | NIH 3T3, 2% FBS medium | 96 h | reference: NIH 3T3 TC50 over T. cruzi EC50 | selectivity ratio | 5
OC(CCN1CC=C(c2ccc(F)cc2)CC1)c1ccc(F)c2ccccc12 (centres unmarked) | Salmonella typhimurium | SOS/umu test | TA1535/pSK1002, TGA medium | 0.000244 mg/mL, 4 h, without S9 | – | survival | 118%
[Cl-].[Cl-].[Pt+2].[Ru+2].c1ccc(-c2nc3cc4ccccc4cc3nc2-c2ccccn2)nc1.c1cnc2c(c1)ccc1cccnc12.c1cnc2c(c1)ccc1cccnc12 | Danio rerio | – | embryos | 45 µM, 96 h | – | hatching rate | 40 ± 3.8%
Cc1cc(C#N)cc(C)c1Oc1nc(Nc2ccc(C#N)cc2)nc(N)c1Br | HIV-1 | – | MT4, IIIB wild type | – | reference: CC50 over EC50 | selectivity index | > 1100
C[C@H]1C[C@@H](N2C(=N)N[C@](C)(c3cccc(NC(=O)c4cccc(C#N)c4)c3Cl)CC2=O)CCO1 | Salmonella typhimurium, Escherichia coli | – | TA98, TA100, TA1535, TA97a, WP2 uvrA pKM101 | concentration not given, with and without S9 | – | mutagenicity | negative
[Cl-].[Cl-].[Pt+2].[Ru+2].c1ccc(-c2nccnc2-c2ccccn2)nc1.c1cnc2c(c1)ccc1cccnc12.c1cnc2c(c1)ccc1cccnc12 | Danio rerio | – | embryos | 90 µM, 0 h | – | survival rate | 100%
CC(=O)N1CCC(C(=O)N2CCN3C(=O)c4cc(-c5ccccc5)ccc4NC(=O)C3C2)CC1 (centres unmarked) | Escherichia coli | – | WP2 uvrA | 15.8 µg/plate, without S9 | – | revertants per plate | 18.5
Fc1cccc(COc2ccc(Nc3ccnc4cc(-c5cccc(N6CCOCC6)c5)ccc34)cc2Cl)c1 | Trypanosoma cruzi | – | NIH 3T3, 2% FBS medium | 96 h | reference: NIH 3T3 TC50 over T. cruzi EC50 | selectivity ratio | 4
CNC(=O)c1c(N(C)N=O)ncn1C | Salmonella typhimurium | mutagenicity, Ames plate incorporation | TA1537 | 2500 µg/plate, without S9, methanol | – | revertant colonies per plate | 8.3 ± 6
COc1cccc(-c2n[nH]c(SCc3ccccn3)n2)c1OC | Escherichia coli | Ames test, plate incorporation | WP2 uvrA | 0.25 mg/plate, with rat liver S9 | – | revertant colonies per plate | 41
O=C(NC(=O)c1ccccc1Cl)Nc1ccc(Cl)cc1 | Plutella xylostella | leaf dipping | – | 50 mg/L, 96 h | – | mortality | 45.2 ± 4.5%
Fc1ccc(C2=CCNCC2)cc1 | Salmonella typhimurium | SOS/umu test | TA1535/pSK1002 | 0.031 mg/mL, 4 h, without S9, full range | – | survival | 96.3%
CN1CCN(S(=O)(=O)c2ccc(-c3ccc4c(Nc5ccc(OCc6cccc(F)c6)c(Cl)c5)ccnc4c3)cc2)CC1 | Trypanosoma cruzi | – | NIH 3T3, 2% FBS medium | 96 h | reference: NIH 3T3 TC50 over T. cruzi EC50 | selectivity ratio | 20
CC1(F)CN(C(=O)Cn2c(=O)c(C(=O)NCc3ccc(Cl)cc3)cc3nc(N4CCNC4=O)cnc32)C1 | herpes simplex virus 1 | cytopathic effect | – | – | reference: CC50 over EC50 | selectivity index | > 77.9
[Cl-].[Cl-].[Pt+2].[Ru+2].c1ccc(-c2nc3ccccc3nc2-c2ccccn2)nc1.c1cnc2c(c1)ccc1cccnc12.c1cnc2c(c1)ccc1cccnc12 | Danio rerio | – | embryos | 30 µM, 12 h | – | survival rate | 93.3 ± 2.4%

Some of these lines once more:
SMILES | organism | assay | test system | conditions | scale | measurement | value
CC(=O)N1CCC(C(=O)N2CCN3C(=O)c4cc(-c5ccccc5)ccc4NC(=O)C3C2)CC1 (centres unmarked) | Escherichia coli | – | WP2 uvrA | 15.8 µg/plate, without S9 | – | revertants per plate | 18.5
O=[N+]([O-])c1ccc(N2CCC(NCCC(O)c3ccc(F)c4ccccc34)CC2)c(C(F)(F)F)c1 (centres unmarked) | Salmonella typhimurium | SOS/umu test | TA1535/pSK1002 | 0.001 mg/mL, 4 h, without S9 activation | – | survival | 57%
